# Measured values of several laboratories.
# Compare with care: the assays were run in different laboratories.
# Cell line: CCRF-CEM
Structure (SMILES),test,setting,scale,endpoint,value
CCOc1ccccc1-c1nnc2n1N=C(c1ccc(N3CCC3)cc1)CS2,"cell migration, Transwell migration",,,EC50,0.18 µM
COc1ccc2c(c1)/C(=N\Nc1nnc3n1N=C(c1ccccc1)CS3)C(=O)N2,"cell growth or viability, SRB",10 µM,,inhibition,51%
Cc1cn([C@@H]2O[C@H](CO)[C@@H](O)[C@H](F)[C@H]2O)c(=O)[nH]c1=O,cell growth or viability,,,IC50,> 200 µM
COc1ccc(C2=Nn3c(NN=C4C(=O)N(C)c5ccc(Br)cc54)nnc3SC2)cc1,"cell growth or viability, SRB",10 µM,,inhibition,18%
COc1cc(CNC(=O)C[C@H](C)CCC=C(C)C)ccc1OCc1cn(-c2ccc(F)cc2)nn1,SRB,"10 µM, 48 h",,growth,84%
C(=C/c1ccccc1)/c1ccccc1,"apoptosis, flow cytometry, item: caspase 3 activity",24 h,baseline: vehicle,lowest effective concentration,50 µM
CCOc1ccccc1-c1nnc2n1N=C(c1ccc(NCC(=O)O)cc1)CS2,"cell migration, Transwell migration",,,EC50,0.32 µM
O=C(Nc1ccn([C@@H]2O[C@H](CO)[C@@H](O)[C@H](F)[C@H]2O)c(=O)n1)c1ccccc1,cell growth or viability,,,IC50,> 200 µM
COc1cc(CNC(=O)C[C@H](C)CCC=C(C)C)ccc1OCc1cn(-c2ccc(Cl)cc2Cl)nn1,SRB,"10 µM, 48 h",,growth,116%
CC/C=C\C/C=C\C/C=C\C/C=C\C/C=C\C/C=C\CCC(=O)Nc1ccn(C2OC(CO)C(O)C2(F)F)c(=O)n1 (centres unmarked),NCI60 screen,,,TGI,17.9 µM
COc1cc(CNC(=O)C[C@H](C)CCC=C(C)C)ccc1OCc1cn(-c2ccc(C#N)cc2)nn1,SRB,"10 µM, 48 h",,growth,58.4%
CC(=O)OC[C@H]1O[C@@H](Sc2sc(C(=O)c3ccc(C)cc3)c(N)c2-c2nc3ccccc3s2)[C@H](OC(C)=O)[C@@H](OC(C)=O)[C@H]1OC(C)=O,SRB,"10 µM, 48 h",,growth,79.5%
CCC(=C(c1ccc(Cl)cc1)c1ccc(OCCCN(C)C)cc1)c1ccc(OC)cc1,cell growth or viability,,,GI50,1.7 µM
COc1cc(CNC(=O)C[C@H](C)CCC=C(C)C)ccc1OCc1cn(-c2ccc(Cl)c(Cl)c2)nn1,SRB,"10 µM, 48 h",,growth,84.5%
CC(=O)OC[C@H]1O[C@@H](Sc2sc(C(=O)c3ccc(Br)cc3)c(N)c2-c2nc3ccccc3s2)[C@H](OC(C)=O)[C@@H](OC(C)=O)[C@H]1OC(C)=O,SRB,"10 µM, 48 h",,growth,85.5%
COc1cc(CNC(=O)C[C@H](C)CCC=C(C)C)ccc1OCc1cn(-c2ccccc2F)nn1,SRB,"10 µM, 48 h",,growth,97.3%
O=c1[nH]c(=O)n([C@@H]2O[C@H](CO)[C@@H](O)[C@H](F)[C@H]2O)cc1F,cell growth or viability,,,IC50,> 200 µM

# Excerpt of the above:
Structure (SMILES),test,setting,scale,endpoint,value
COc1ccc2c(c1)/C(=N\Nc1nnc3n1N=C(c1ccccc1)CS3)C(=O)N2,"cell growth or viability, SRB",10 µM,,inhibition,51%
Cc1cn([C@@H]2O[C@H](CO)[C@@H](O)[C@H](F)[C@H]2O)c(=O)[nH]c1=O,cell growth or viability,,,IC50,> 200 µM
